Assay results pooled from the literature.
Each numbered part is a random draw from the data of one study; scales do not carry over between parts.

Series 1
Target: Sal-like protein 4, full length isoform A (SALL4, Homo sapiens, UniProt Q9UJQ4, residues 1-1053)
UniProt Q9UJQ4, sequence (whole entry, looked up): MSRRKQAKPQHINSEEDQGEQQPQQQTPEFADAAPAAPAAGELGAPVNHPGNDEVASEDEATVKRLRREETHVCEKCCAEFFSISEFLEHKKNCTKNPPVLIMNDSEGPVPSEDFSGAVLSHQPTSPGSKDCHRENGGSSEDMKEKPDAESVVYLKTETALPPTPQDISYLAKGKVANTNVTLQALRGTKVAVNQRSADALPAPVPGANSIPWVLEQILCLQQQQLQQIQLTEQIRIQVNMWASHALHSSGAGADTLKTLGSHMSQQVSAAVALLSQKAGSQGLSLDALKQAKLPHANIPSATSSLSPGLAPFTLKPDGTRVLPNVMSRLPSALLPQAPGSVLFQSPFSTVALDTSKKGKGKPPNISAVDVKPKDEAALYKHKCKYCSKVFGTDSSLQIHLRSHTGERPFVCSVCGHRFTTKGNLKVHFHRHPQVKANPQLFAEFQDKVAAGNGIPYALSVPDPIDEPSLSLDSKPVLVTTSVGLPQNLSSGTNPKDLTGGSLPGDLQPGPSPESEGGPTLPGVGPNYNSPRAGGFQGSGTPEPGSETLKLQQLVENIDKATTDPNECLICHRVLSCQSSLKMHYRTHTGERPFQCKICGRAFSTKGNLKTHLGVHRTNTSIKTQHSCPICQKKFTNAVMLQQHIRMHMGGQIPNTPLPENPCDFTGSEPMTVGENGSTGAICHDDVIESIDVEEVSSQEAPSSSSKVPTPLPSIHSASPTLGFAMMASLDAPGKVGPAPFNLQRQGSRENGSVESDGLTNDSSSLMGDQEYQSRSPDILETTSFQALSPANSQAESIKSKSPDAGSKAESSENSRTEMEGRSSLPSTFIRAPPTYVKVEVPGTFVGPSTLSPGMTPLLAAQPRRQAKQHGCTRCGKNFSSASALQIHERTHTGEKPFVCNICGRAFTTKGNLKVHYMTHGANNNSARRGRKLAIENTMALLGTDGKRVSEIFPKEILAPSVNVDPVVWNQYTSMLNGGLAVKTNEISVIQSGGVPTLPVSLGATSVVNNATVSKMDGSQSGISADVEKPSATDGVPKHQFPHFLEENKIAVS
Method: universal PBM
Form: double-stranded DNA, one strand shown
Medium: in vitro
Concentration: 600 nM
Notes: 8-mer, flanks averaged, mean of replicates
Reading: higher = stronger binding
Quantity: E-score
AGGGACAC: -0.122
ATCACGGG: -0.124
AGATGCAT: -0.0124

Series 2
Target: Prothrombin, mature alpha-thrombin (F2, Homo sapiens, UniProt P00734)
Method: aptamer microarray, sandwich
Form: DNA with 2'F-ANA
Medium: in vitro
Concentration: 200 nM
Notes: whole 15-mer aptamer, many near background
Added: Cy3 exosite-II aptamer, 400 nM
Reading: higher = stronger binding
Quantity: mean fluorescence intensity
GGTTGGTGTGGTTGG (2'F-ANA at 1 4 5 6 7 8 9 11 14): 51.6 a.u.
GGTTGGTGTGGTTGG (2'F-ANA at 1 3 4 8 9 11 13 15): 149 a.u.
GGTTGGTGTGGTTGG (2'F-ANA at 1 3 5 6 7 8 9 10 11 12 13 14): 66.8 a.u.
GGTTGGTGTGGTTGG (2'F-ANA at 3 4 6 9 12 13): 582 a.u.

Series 3
Target: Histone acetyltransferase KAT6A, winged helix 1, GST fusion (KAT6A, Homo sapiens, UniProt Q92794, residues 1-85)
Method: protein binding microarray
Form: double-stranded DNA, one strand shown
Medium: in vitro
Concentration: not given
Notes: 8-mer, flanks averaged, mean of 2 arrays, mostly near background
Reference: not given
Reading: higher = stronger binding
Quantity: E-score
Residues (chain): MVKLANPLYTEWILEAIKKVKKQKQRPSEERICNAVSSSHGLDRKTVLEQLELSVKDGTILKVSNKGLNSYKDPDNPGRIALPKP
GATAGAGC: 0.0738
ACGTAGAA: -0.117
TCGAGCGA: 0.0738
CATGATAC: -0.154
ATGAGTTG: -0.218
AGGTTTTC: -0.101

Single results of other studies
PhoQ, residues 284 288 289 292 302 303 NLGVHL  fold induction (PhoP, residues 12 14 15 18 19 YHFSH (Escherichia coli, UniProt P23836); Sort-seq, item: YFP reporter; E. coli; PhoQ-PhoP variant library, added: 10 µM Mg2+; reference: high Mg2+ state, higher = stronger signaling): 5.68

Repeated from above (series 2):
GGTTGGTGTGGTTGG (2'F-ANA at 1 4 5 6 7 8 9 11 14): 51.6 a.u.
